Assay results from different studies.
Parts stem from different laboratories: compare values within a part only. Positions count from the first letter of the parent shown.

Set 1
Target: RNA binding protein fox-1 homolog 2, RRM domain, GST-SBP tag (RBFOX2, Homo sapiens, UniProt O43251-10, residues 100-194)
Method: RNA Bind-n-Seq
Molecule type: RNA
Sample: in vitro
Concentration: 365 nM
Setting: natural RNA segment, single round, ends assumed
Reference: no-protein control
Reading: higher = stronger binding
| Sequence | RBNS enrichment (R) |
| --- | --- |
| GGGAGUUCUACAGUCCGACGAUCUAAACUGUACUGUUUGCAAGUAGUUUAUAGAAAUUUUGUUUUAAGUCUUCAAAUACCUUGAAAAAAAAUAGACUGUAUGUUGAAAAUUGUAUUGAAAUAAAGUAGAAAAUUGGAAUUCUCGGGUGCCAA | 0.608 |
| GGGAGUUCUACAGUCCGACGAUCUUUCCCCUACCCCCAAGGAUGCCAGGAAGACGUCCACCAUUAGCCAUGUGGCAACCUUUACUUCUAUGCCUCACAAGUGCCUUUCAGAGAGCCCCAAUUCUGCUUUCCCAUGGAAUUCUCGGGUGCCAA | 0.731 |
| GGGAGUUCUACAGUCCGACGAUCCUUUCCUCUUCUAUGACCCCUCUCUCCCCAGUAUUAUCUUACUUGCAAAAUGGAGACCAAAUUCUAUCCUGUGAGGCUUUUAAUUGCACCAUAGUAUGCUCUGAGUAGCUUGGAAUUCUCGGGUGCCAA | 0.428 |
| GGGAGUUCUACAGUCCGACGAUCAUGUCCCUUUCAGAGACAGCUGAUACUUCAUUUAAAAAAAUCACAAAAAUUUGAACACUGGCUAAAGAUAAUUGCUAUUUAUUUUUACAAGAAGUUUAUUCUCAUUUGGGUGGAAUUCUCGGGUGCCAA | 0.576 |
| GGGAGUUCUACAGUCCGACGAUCAUUGUAUAUAUGGCAGGCUUCCCUGGUGCCGAUGUAAAGGGCUACAUUUGGGAACAUUUGACUUCCUUGGGACUCUUAAGUGCAUAAUGAUGGCAUGAAGUAAAAGGGGCUGGAAUUCUCGGGUGCCAA | 8.96 |

Set 2
Target: DBP, bZIP domain (human)
Method: DHFR protein complementation
Sample: yeast
Setting: single substitutions, most at no-binding floor
Reference: wild-type JUN-FOS pair
Reading: higher = stronger binding
Starting sequence: JUN, bZIP domain (human); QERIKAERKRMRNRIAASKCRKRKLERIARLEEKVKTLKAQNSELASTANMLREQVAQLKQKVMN; partner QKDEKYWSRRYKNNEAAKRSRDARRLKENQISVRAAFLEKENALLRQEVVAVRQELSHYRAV
| Change | binding fitness |
| --- | --- |
| T37V | -1.35 natural log |
| A57V | -1.54 natural log |
| E32N | -1.46 natural log |

Set 3
Target: Sal-like protein 4, full length isoform B (SALL4, Homo sapiens, UniProt Q9UJQ4-2, residues 1-616)
Method: universal PBM
Molecule type: double-stranded DNA, one strand shown
Sample: in vitro
Concentration: not given
Setting: 8-mer, flanks averaged, mean of replicates
Reading: higher = stronger binding
| Sequence | E-score |
| --- | --- |
| CACAGTCA | 0.0442 |
| CCGGGTCA | -0.344 |
| AGGACAAC | -0.025 |

Further values, each from its own experiment
| Substance | target | assay | test system | setting | how to read | quantity | result |
| --- | --- | --- | --- | --- | --- | --- | --- |
| PhoQ, residues 284 288 289 292 302 303 TYGVAM | PhoP, residues 12 14 15 18 19 NNFVT (Escherichia coli, UniProt P23836) | Sort-seq, measured: YFP reporter | E. coli | PhoQ-PhoP variant library, together with: 10 µM Mg2+ | reference: high Mg2+ state, higher = stronger signaling | fold induction | 1.68 |

Excerpt of the above (set 1):
| Sequence | RBNS enrichment (R) |
| --- | --- |
| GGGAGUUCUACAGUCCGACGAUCUAAACUGUACUGUUUGCAAGUAGUUUAUAGAAAUUUUGUUUUAAGUCUUCAAAUACCUUGAAAAAAAAUAGACUGUAUGUUGAAAAUUGUAUUGAAAUAAAGUAGAAAAUUGGAAUUCUCGGGUGCCAA | 0.608 |
| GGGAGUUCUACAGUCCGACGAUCUUUCCCCUACCCCCAAGGAUGCCAGGAAGACGUCCACCAUUAGCCAUGUGGCAACCUUUACUUCUAUGCCUCACAAGUGCCUUUCAGAGAGCCCCAAUUCUGCUUUCCCAUGGAAUUCUCGGGUGCCAA | 0.731 |
